Results from different studies.
Each line is one published result; not all experiments were run side by side. Numbers after ± are the reported error.

For `CC(C)NC[C@@H](C(=O)N1CCN(c2ncnc3c2[C@H](C)C[C@H]3O)CC1)c1ccc(Cl)cc1`, “apparent volume of distribution” read 21300 L (human, Healthy hepatic function, plasma; oral, 100 mg single dose, NCI classification, geometric mean).
Under “apparent clearance (CL/F)”, `NC1(c2ccc(-c3nc4ccn5c(=O)[nH]nc5c4cc3-c3ccccc3)cc2)CCC1` is recorded as 435 ± 125 mL/min (human patients, plasma; oral, 135 mg, alone, expansion).
Under “apparent volume Vz/F”, `COc1cccc(-c2ccc(NC(=O)C3=C(C(=O)O)CCC3)c(F)c2)c1` is recorded as 12.8 L (human, male, plasma; oral, 50 mg once daily, day 13, geometric mean, not pre-dosed).
`CCN(CC)CCNC(=O)c1c(C)[nH]c(/C=C2\C(=O)Nc3ccc(F)cc32)c1C` — result for “apparent central volume (V1/F)”: 1780 L (human, hepatocellular carcinoma; oral, 37.5 mg once daily).
For `COc1cc(NC(=O)CCN2CCC(OC(=O)Nc3ccccc3-c3ccccc3)CC2)c(Cl)cc1CNC[C@H](O)c1ccc(O)c2[nH]c(=O)ccc12`, the apparent clearance was 6.85 L/h (human COPD patients, plasma; inhaled, 800 µg once daily or 400 µg twice daily, day 28, log population model estimate).
Under “apparent volume of distribution”, `Cc1cc(/C=C/C#N)cc(C)c1Nc1ccnc(Nc2ccc(C#N)cc2)n1` is recorded as 705 L (human, female, plasma; oral, 25 mg).
For `CCCOc1ccc([C@H]2CNC(=O)N2c2ccc3[nH]cnc3c2)cc1`, “apparent terminal half-life” read 5.56 h (human volunteers fasted, plasma; oral tablet, 1800 mg single dose, day 1, geometric mean).
For `O=C(NC[C@H](O)CO)c1ccncc1Nc1ccc(I)cc1F`, “apparent volume of distribution” read 348 L (human; oral, 60 mg, single dose with FOLFIRI).
For `C=CC(=O)N1CCC([C@@H]2CCNc3c(C(N)=O)c(-c4ccc(Oc5ccccc5)cc4)nn32)CC1`, “apparent volume of distribution” read 1630 L (human; oral, 480 mg, single dose, mean).
`C[C@@H](Oc1cc(-c2cnn(C3CCNCC3)c2)cnc1N)c1c(Cl)ccc(F)c1Cl` — result for “apparent oral clearance”: 110 ± 42.2 L/h (healthy human; oral, 250 mg single fasted, arithmetic mean).
`CCN1CCN(Cc2ccc(Nc3ncc(F)c(-c4cc(F)c5nc(CO)n(C(C)C)c5c4)n3)nc2)CC1` — result for “apparent hepatic clearance”: 26 L/h (human patients; oral, 150 mg single, geometric mean).
`CNC(=O)c1cc(Oc2ccc(NC(=O)Nc3ccc(Cl)c(C(F)(F)F)c3)cc2)ccn1` — result for “apparent volume of distribution”: 171 L (population PK model; human, AML patients; oral, dose not given, typical at 80 kg).
For `CC(C)[C@H](N)C(=O)NCCCS(=O)(=O)O`, the apparent half-life was 0.7 to 0.81 h (human, plasma; oral, dose not given, single dose, across doses).

A few entries again:
For `CC(C)NC[C@@H](C(=O)N1CCN(c2ncnc3c2[C@H](C)C[C@H]3O)CC1)c1ccc(Cl)cc1`, “apparent volume of distribution” read 21300 L (human, Healthy hepatic function, plasma; oral, 100 mg single dose, NCI classification, geometric mean).
